Results pooled from the literature.
Compare with care: the assays were run in different laboratories. Values joined by “and” are separate records of one study, mostly repeats; a detail may differ. Numbers after ± are the reported error.
CGAS catalytic domain; with DNA: Cyclic GMP-AMP synthase, catalytic domain; with DNA (CGAS, Homo sapiens, UniProt Q8N884)
PYL8: PYL8 (Arabidopsis thaliana, UniProt Q9FGM1)

Structure (SMILES) = Cc1nn(-c2nc3c(F)cc(F)cc3s2)c(O)c1C(c1ccccc1C(F)(F)F)c1c(C)nn(-c2nc3c(F)cc(F)cc3s2)c1O; target = CGAS catalytic domain; with DNA; assay = cGAS phase separation, inhibitor; EC50 = 2160 nM and 1620 nM
Structure (SMILES) = COc1cc(Nc2ncc3c(n2)-c2ccc(Cl)cc2C(c2c(F)cccc2OC)=NC3)ccc1C(=O)NCCOCCOCCNC(=O)COc1cccc2c1C(=O)N(C1CCC(=O)NC1=O)C2=O (stereo not drawn); target = Interleukin-1 receptor-associated kinase 3 (IRAK3, Homo sapiens, UniProt Q9Y616); assay = binding, kinobead competition; test system = MV4-11 cell lysate; EC50 = > 30000 nM
Structure (SMILES) = O=C(COP(=O)(O)O)[C@@H](O)[C@H](O)[C@H](O)COP(=O)(O)O; target = Pyruvate kinase PKM (PKM, Homo sapiens, UniProt P14618); assay = pyruvate kinase activity, activator; test system = MGC-803 cell lysate; conditions = without AIM; EC50 = 43.9 ± 18.4 nM
Structure (SMILES) = O=C(O)c1cccnc1Nc1cccc(C(F)(F)F)c1; target = BK channel alpha subunit (Cavia porcellus, UniProt A0A286XP95); assay = delayed rectifier K+ current, activator; test system = dispersed vascular smooth muscle cells, guinea pig, AICA arteriole; conditions = at +40 mV; EC50 = 301000 nM
Structure (SMILES) = CCn1c(-c2nc3ccc(C(=O)N4CCCC(N)C4)cc3n2C)cc2ccccc21 (stereo not drawn); target = Acetylcholine receptor subunit alpha (CHRNA1, Homo sapiens, UniProt P02708); assay = agonist, intracellular Ca2+ fluorescence; EC50 = > 50100 nM
Structure (SMILES) = CCCCCCCCCCCCC/C=C/[C@@H](O)[C@@H](N)COP(=O)(O)O; target = Sphingosine 1-phosphate receptor 4 (S1PR4, Homo sapiens, UniProt O95977); assay = agonist, cell-based; EC50 = 251 nM
Structure (SMILES) = O=C(Cc1cc(C2CC2)c(-n2cc(CNC(=O)c3cccc(Br)n3)nn2)c(C2CC2)c1)NC1(C(=O)O)CCCCC1; target = PYL8; assay = phosphatase activity recovery, antagonist; conditions = added: HAB1, ABA 5000 nM; EC50 = 295 ± 49 nM
Structure (SMILES) = Cc1nn(-c2nc3ccccc3s2)c(O)c1C(c1ccccc1C(=O)O)c1c(C)nn(-c2nc3ccccc3s2)c1O; target = CGAS catalytic domain; with DNA; assay = cGAS-DNA phase separation, inhibitor; EC50 = 184 nM and 426 nM
Structure (SMILES) = Nc1nc2c(ncn2[C@@H]2O[C@@H]3COP(=O)(O)O[C@H]3[C@H]2O)c(=O)[nH]1; target = Cone cGMP-gated channel (Morone saxatilis, UniProt Q3I0N1+Q3I0N2); assay = channel current, agonist, suction electrode; test system = Morone saxatilis cone outer segments; conditions = added: 0.2 µM Ca2+; EC50 = 142000 nM
Structure (SMILES) = C[N+](C)(C)CCO; target = Chrnd/Chrna1/Chrne (Mus musculus, UniProt P02716+P04756+P20782, G173K/S470W); assay = cell-based; EC50 = 220000 nM
Structure (SMILES) = COc1cc(F)c([C@@H]2CNC(=O)[C@H]2NC(=O)Nc2ccccc2)c(F)c1; target = Formyl peptide receptor 2 (Mus musculus, UniProt O88536); assay = Gαi2 activation, agonist, BRET; test system = HEK293 expressing mouse FPR2; EC50 = 1 nM
Structure (SMILES) = O=C(Cc1cc(C2CC2)c(-n2cc(CNC(=O)c3ccc(Cl)s3)nn2)c(C2CC2)c1)NC1(C(=O)O)CCCCC1; target = PYL8; assay = phosphatase activity recovery, antagonist; conditions = added: HAB1, ABA 5000 nM; EC50 = 581 ± 78 nM
Structure (SMILES) = CCOc1ccc(NC(=O)O[C@@H](Cn2nc(C(C)C)cc2C(C)C)C(C)C)cc1; target = Neuronal acetylcholine receptor; alpha4/beta2 (Homo sapiens, UniProt P17787+P43681); assay = ACh-evoked current, positive allosteric modulator, two-electrode voltage clamp; conditions = low-sensitivity stoichiometry, added: ACh 100 µM; EC50 = 800 nM and ~800 nM
Structure (SMILES) = O=C(Cc1cc(C2CC2)c(-n2cc(CNC(=O)c3ccc4ccccc4c3)nn2)c(C2CC2)c1)NC1(C(=O)O)CCCCC1; target = PYL8; assay = phosphatase activity recovery, antagonist; conditions = added: HAB1, ABA 5000 nM; EC50 = 1010 ± 302 nM
Structure (SMILES) = CC(=O)c1cc([N+](=O)[O-])c(Sc2cccc(Cl)c2Cl)s1; target = Ubiquitin carboxyl-terminal hydrolase 15 (USP15, Homo sapiens, UniProt Q9Y4E8); assay = enzyme activity, inhibitor; EC50 = > 50000 nM
Structure (SMILES) = CCCCC[C@H](O)/C=C/[C@H]1[C@H](O)CC(=O)[C@@H]1C/C=C\CCCC(=O)O; target = Prostaglandin E2 receptor EP1 subtype (PTGER1, Homo sapiens, UniProt P34995, E134A); assay = IP1 accumulation, agonist; test system = AD293; conditions = EP1 E134A mutant; EC50 = 1.13 nM
Structure (SMILES) = CCn1c(-c2nc3cc(C(=O)N4CCC[C@@H](N)C4)cc(OC)c3n2C)cc2cccnc21; target = Cannabinoid receptor 2 (CNR2, Homo sapiens, UniProt P34972); assay = agonist, yeast FDGlu reporter; test system = yeast; EC50 = > 31600 nM
Structure (SMILES) = O=C(Nc1ccn(Cc2ccc(O)cc2C(F)(F)F)n1)c1c(F)cccc1F; target = Potassium voltage-gated channel subfamily KQT member 3 (KCNQ3, Homo sapiens, UniProt O43525); assay = channel activity, agonist; test system = cells overexpressing channel; EC50 = > 10000 nM
Structure (SMILES) = O=C(Cc1cc(C2CC2)c(-n2cc(CNC(=O)c3cccc4c3OC(F)(F)O4)nn2)c(C2CC2)c1)NC1(C(=O)O)CCCCC1; target = PYL8; assay = phosphatase activity recovery, antagonist; conditions = added: HAB1, ABA 5000 nM; EC50 = 303 ± 52 nM
Structure (SMILES) = NCC(=O)O; target = Sodium- and chloride-dependent glycine transporter 2 (Homo sapiens, UniProt Q9Y345); assay = transport current, substrate, two-electrode voltage clamp; test system = Xenopus laevis oocytes; EC50 = 18000 ± 1200 nM
Structure (SMILES) = O=C(Cc1cc(C2CC2)c(-n2cc(CNC(=O)c3ccc4cccc(F)c4n3)nn2)c(C2CC2)c1)NC1(C(=O)O)CCCCC1; target = PYL8; assay = phosphatase activity recovery, antagonist; conditions = added: HAB1, ABA 5000 nM; EC50 = 119 ± 21 nM
Structure (SMILES) = CC/C(=C(\c1ccccc1)c1ccc(OCCN(C)C)cc1)c1ccccc1; target = Metalloendopeptidase OMA1, mitochondrial (OMA1, Homo sapiens, UniProt Q96E52); assay = luciferase reporter activation, Luke-S1 protease reporter; test system = human cells; EC50 = 7600 nM
Structure (SMILES) = O=C(Cc1cc(C2CC2)c(-n2cc(CNC(=O)c3cc(Br)co3)nn2)c(C2CC2)c1)NC1(C(=O)O)CCCCC1; target = PYL8; assay = phosphatase activity recovery, antagonist; conditions = added: HAB1, ABA 5000 nM; EC50 = 293 ± 85 nM
Structure (SMILES) = O=C(O)c1ccc(S(=O)(=O)N2CCCCC2)cc1; target = Transient receptor potential cation channel subfamily V member 2 (Trpv2, Rattus norvegicus, UniProt Q9WUD2); assay = calcium influx, agonist, Fura-2 fluorescence; test system = Pichia pastoris membrane vesicles; EC50 = 16000 nM

Repeated from above:
Structure (SMILES) = Nc1nc2c(ncn2[C@@H]2O[C@@H]3COP(=O)(O)O[C@H]3[C@H]2O)c(=O)[nH]1; target = Cone cGMP-gated channel (Morone saxatilis, UniProt Q3I0N1+Q3I0N2); assay = channel current, agonist, suction electrode; test system = Morone saxatilis cone outer segments; conditions = added: 0.2 µM Ca2+; EC50 = 142000 nM
Structure (SMILES) = C[N+](C)(C)CCO; target = Chrnd/Chrna1/Chrne (Mus musculus, UniProt P02716+P04756+P20782, G173K/S470W); assay = cell-based; EC50 = 220000 nM
